Experimental data collected from several papers.
Parts stem from different laboratories: compare values within a part only.

Block 1
Target: Probable WRKY transcription factor 33, C-terminal DNA-binding domain (WRKY33, Arabidopsis thaliana, UniProt Q8S8P5, residues 346-449)
Technique: DNA-protein interaction ELISA
Form: double-stranded DNA, one strand shown
Matrix: in vitro, bacterial lysate
Tested at: not given
Notes: whole dsDNA probe, crude lysate protein
Reference: highest signal in screen
Reading: higher = stronger binding
Residues (chain): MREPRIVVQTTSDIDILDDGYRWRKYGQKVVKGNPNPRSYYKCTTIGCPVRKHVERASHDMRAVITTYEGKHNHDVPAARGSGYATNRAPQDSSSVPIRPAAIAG
Sequence	relative absorbance
AAAAAATACATTTGACTTTGGGTTTCAAAA	100 % of maximum
AAAAAATGTCGGCTGTTAGGATATCGAAAA	26.9 % of maximum
AAAAAACCCATCCTTCGTTCCATCGTAAAA	33.3 % of maximum
AAAAAAGTACATGCGTAGATAATGTTAAAA	49.9 % of maximum
AAAAAATGCCCTTTTTATCTTTATGTAAAA	33.9 % of maximum

Block 2
Target: Interferon regulatory factor 3, full length, phosphomimetic (IRF3, Homo sapiens, UniProt Q14653, residues 1-427, S386D/S396D/S398D/S402D/T404D/S405D)
UniProt Q14653, sequence (whole entry, unmodified, looked up): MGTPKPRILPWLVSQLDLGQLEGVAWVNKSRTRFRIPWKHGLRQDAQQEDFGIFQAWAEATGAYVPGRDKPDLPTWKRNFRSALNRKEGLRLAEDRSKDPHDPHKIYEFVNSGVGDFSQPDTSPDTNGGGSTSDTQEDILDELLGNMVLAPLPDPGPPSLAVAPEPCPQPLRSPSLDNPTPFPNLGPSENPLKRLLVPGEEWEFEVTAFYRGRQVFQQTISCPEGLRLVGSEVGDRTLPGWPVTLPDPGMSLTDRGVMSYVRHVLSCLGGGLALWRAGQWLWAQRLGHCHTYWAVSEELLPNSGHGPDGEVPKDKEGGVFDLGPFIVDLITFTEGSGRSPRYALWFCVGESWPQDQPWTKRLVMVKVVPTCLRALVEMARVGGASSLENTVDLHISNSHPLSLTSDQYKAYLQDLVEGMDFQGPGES
Technique: protein-binding microarray
Form: double-stranded DNA, one strand shown
Matrix: in vitro
Tested at: 2540 nM top
Notes: 60-bp whole probe
Added: salmon DNA 0.4 mg/ml
Reference: random background probes
Reading: higher = stronger binding
Shared flanks, not repeated: GCCTAGCAC … GTCTTGATTCGCTTGACGCTGCTG
Sequence	fitted relative affinity
GACGATTTCAGGACTGGAGACGTGCTA	1.15 z-score
TTAGAAATCGGGACTGGATTAGTGCTA	-0.316 z-score
GACGGTTGCCTTTTCCTGACGTGCTAG	5.91 z-score
TTAGATAGCGGGTATCGATTAGTGCTA	-0.139 z-score
TCATTTTTTAATTGAGAACTGTGCTAG	1.39 z-score

Block 3
Target: RNA binding protein fox-1 homolog 2, RRM domain, GST-SBP tag (RBFOX2, Homo sapiens, UniProt O43251-10, residues 100-194)
Technique: RNA Bind-n-Seq
Form: RNA
Matrix: in vitro
Tested at: 365 nM
Notes: natural RNA segment, single round, ends assumed
Reference: no-protein control
Reading: higher = stronger binding
Shared flanks, not repeated: GGGAGUUCUACAGUCCGACGAUC … UGGAAUUCUCGGGUGCCAA
Target sequence (chain): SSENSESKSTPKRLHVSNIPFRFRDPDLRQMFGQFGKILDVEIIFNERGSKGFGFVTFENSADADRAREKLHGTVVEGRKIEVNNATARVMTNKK
Sequence	RBNS enrichment (R)
GCAGCCCCGCCCCCGUGGGUCUCUGACUCUGUCGCUUUUCUCUAAGUAAAGAUUUCACGUCCACCGGGGCUUCCAUCUCUCCUGCGCGUCCUCUGCCGGGCUGGCCUUUC	0.367
AGUGCCUUAUUAUGUUUCUCCCUUGAAUGCUUCAGUGUUUUGAGUCAUACUCUAGAAUGGACUGACACUAGGACACACUCAGGACUUUUUUAGUUGUAUUUUAUACCUGU	0.788
GUUUCAGUCUACCCUUAAAGAAGUCAAGCCAAAAAUAGAGGUGAGGGCUACUUUGCUUCUUAAUGUAGGCCUACUGUGCACACCACACACUCUCUCUGAGGGACUGUAGC	0.337
GGUGUUGGGUAGACACUGACAGUUGAGAGGGUCACCAGGGUGCCACUCUAGUGUGAAGUCCUCUUCUAGGGUAUCCUGGUGACUGUGGCUAGCCAAGGGGCCACUUCUUG	0.344
GUCCUAUGACAGAGAAUGACUUAGAGCCACAGGCAUGAGUCCUUGAUAGGCAGGACUGAAAAACCAAAGAGCACAUGCACUGAGCUAUCUUGAAGUCCGUUAUAUGCAGA	2.76
AUCCUGGAGUUUUGUUAUCAGCAGCUUUGCAGUUUGGGAAACAAAGAAACCAAAGCUGAGUGUUUUAAAGAAUGAACAUAUCUGGAAAUCCUUGCUCUCAAAACAAAACA	0.443

Other studies, line by line
Substance	target	assay	test system	setting	how to read	measurement	value
PhoQ, residues 284 288 289 292 302 303 SSCCRF	PhoP, residues 12 14 15 18 19 SPWRL (Escherichia coli, UniProt P23836)	Sort-seq, item: YFP reporter	E. coli	PhoQ-PhoP variant library, added: 10 µM Mg2+	reference: high Mg2+ state, higher = stronger signaling	fold induction	6.79

For quick reference, copied from above (block 1):
Sequence	relative absorbance
AAAAAATGTCGGCTGTTAGGATATCGAAAA	26.9 % of maximum
AAAAAACCCATCCTTCGTTCCATCGTAAAA	33.3 % of maximum
